Results collected from several papers.
± marks the error that the study gave.

| Structure (SMILES) | cell line | assay | conditions | IC50 [µM] |
| --- | --- | --- | --- | --- |
| CCOc1cncc(-c2ccc(NC(=O)C3(c4ccnc(NS(=O)(=O)C5CC5)n4)CCOCC3)nc2)n1 | UACC-257 | cell growth or viability, ATP luminescence | 72 h | 0.072 |
| CCn1nc(Cl)c2c1-c1cnc(N)c(c1)O[C@H](C)c1cc(F)ccc1-c1nn(C)cc1C2 | Ba/F3 EML4-ALK variant 1 E1210K | cell viability |  | 0.000625 |
| C/C(=N\N=c1/[nH]c(-c2ccccc2)cs1)c1c(O)c2ccccc2oc1=O | human Skin fibroblast | cell growth or viability, MTT | 48 h | > 100 |
| CC(=O)NCCOCCOCCOCCNC(=O)c1cc(C(=O)N2CCNCCNCCNCC2)c(O)c(C(=O)N2CCNCCNCCNCC2)c1 | 2C6 normal pancreas | cell viability, MTT | 24 h | > 1000 |
| CN(C)C(=O)c1cccc(N2Cc3cn(Cc4ccccc4F)nc3C2)c1 | HEK293 expressing GluA1 and GluA2 | glutamate excitotoxic cell death, CellTox Green | together with: glutamate | 0.039 |
| CCOC(=O)/C=C1\S/C(=N\N=C\c2cccc3cc4ccccc4nc23)N(c2ccc(F)cc2)C1=O | SK-BR-3 | cell growth or viability, MTT | 48 h | > 50 |
| CNC(=O)c1cc(OC)c(-c2cc(C(C)=O)n3ccccc23)cc1OC | MV4-11 | cell growth or viability, ATP luminescence |  | 2.84 |
| O=C(NC1CCCCC1)c1cncc(N2Cc3cn(Cc4ccc(F)cc4)nc3C2)n1 | HEK293 expressing GluA1 and GluA2 | glutamate excitotoxic cell death, CellTox Green | together with: glutamate | 0.046 |
| CCN(C(=O)c1cc(F)ccc1Oc1nncnc1N1CCC2(C1)CN(C(CCCN(C)CCOC)C(C)C)C2)C(C)C (centres unmarked) | MV4-11 | QuantiGene, item: FLT3 mRNA |  | 1.63 ± 0.128 |
| NCCOc1cc(NC(=O)c2cc(OCc3cn(Cc4ccc(C(=O)O)cc4)nn3)cc(C(=O)Nc3cc(OCCN)c4ccccc4n3)n2)nc2ccccc12 | HT-1080 | cell growth or viability, ATP luminescence | 72 h | > 40 |
| NC(=O)c1ccc(-c2ccccc2Cl)c2c3c([nH]c12)CCC(N)C3 (centres unmarked) | RKO | cell growth or viability | 96 h | 0.00442 |
| Cc1ccc(C(C)C)cc1.Cc1ccc(C(C)C)cc1.Cc1ccc(C(C)C)cc1.Cc1ccc(C(C)C)cc1.O=S(=O)(O)C(F)(F)F.O=S(=O)(O)C(F)(F)F.O=S(=O)(O)C(F)(F)F.O=S(=O)(O)C(F)(F)F.c1ccc2c3c4ccccc4c(c2c1)-c1cn(nn1)-c1cc[n+](cc1)[Ru-]1[O]c2c4ccccc4c4c5c(c6ccccc6c(c25)=[O+]1)=[O+][Ru-]([O]4)[n+]1ccc(cc1)-n1cc(nn1)-c1c2ccccc2c(c2ccccc12)-c1cn(nn1)-c1cc[n+](cc1)[Ru-]1[O]c2c4ccccc4c4c5c(c6ccccc6c(c25)=[O+]1)=[O+][Ru-]([O]4)[n+]1ccc(cc1)-n1cc-3nn1 | AGS | cell growth, MTT | 24 h, 20 µM preincubated in medium 0 h at 37 °C | 2.4 ± 0.33 |
| COCCNC(=O)c1cccc(N2Cc3cnn(Cc4ccc(F)cc4)c3C2)c1 | HEK293 expressing GluA1 and GluA2 | glutamate excitotoxic cell death, CellTox Green | together with: glutamate | 1.06 |
| COc1cc(-c2cc(C(C)=O)n3ccccc23)cc(OC)c1Cn1ccnc1 | MV4-11 | cell growth or viability, ATP luminescence |  | 0.72 |
| CN1CCN(C(=O)c2cncc(N3Cc4cnn(Cc5ccc(F)cc5)c4C3)n2)CC1 | HEK293 expressing GluA1 and GluA2 | glutamate excitotoxic cell death, CellTox Green | together with: glutamate | 0.351 |
| CC(C)CN1C(=O)CS/C1=N\N=C\c1cccc2cc3ccccc3nc12 | SK-BR-3 | cell growth or viability, MTT | 48 h | > 50 |
| O=C(NCc1cc(F)cc(F)c1)[C@@]1(O)CCN(c2ccc3[nH]ccc3c2)C1=O | IMR-5 | cell growth or viability |  | 0.12 |
| Cn1ncc(-c2ccc3c(=O)[nH]nc(CN)c3c2)c1-c1c(F)c(Cl)cc(OC2CC2)c1C#N | EFM-19 | cell viability, inhibitor, CellTiter-Glo | 120 h, baseline-subtracted | 0.29 |
| CN(C(=O)c1cncc(N2Cc3cn(Cc4ccc(F)cc4)nc3C2)n1)C1CCCC1 | HEK293 expressing GluA1 and GluA2 | glutamate excitotoxic cell death, CellTox Green | together with: glutamate | 0.042 |

| Structure (SMILES) | cell line | assay | conditions | IC50 [µM] |
| --- | --- | --- | --- | --- |
| C=CC(=O)N1C[C@H](C)N(c2nc(OC[C@@]34CCCN3C[C@H](F)C4)nc3c(F)c(-c4ccc(F)c5sc(N)c(C#N)c45)c(C(F)(F)F)cc23)C[C@H]1C | Ba/F3 expressing KRAS G12D | cell viability | 72 h | 0.083 |
| O=c1c(O)c(-c2ccc(O)c(O)c2)oc2cc(O)cc([O][Ga+][O]c3cc(O)cc4oc(-c5ccc(O)c(O)c5)c(O)c(=O)c34)c12 | LO2 | cell viability, MTT |  | > 200 |
| COc1cc(S(=O)(=O)Oc2ccc3[nH]c(C)cc3c2)cc(OC)c1OC | SUIT-2 | cell growth or viability, fluorescence | 72 h | 0.0154 |
| CN(C)C(=O)c1cccc(N2Cc3cn(Cc4ccc(F)cc4)nc3C2)c1 | HEK293 expressing GluA1 and GluA2 | glutamate excitotoxic cell death, CellTox Green | together with: glutamate | 0.0067 |
| CCN1C(=O)CS/C1=N/N=C(\C)c1c(O)c2ccccc2oc1=O | human Skin fibroblast | cell growth or viability, MTT | 48 h | > 100 |
| CNS(=O)(=O)Nc1nccc(Cc2c(C)c3ccc(Oc4ncccc4F)cc3oc2=O)c1F | NCI-H520 | cell viability | 7 days | 0.43 |
| C=CC(=O)N1CCCC(n2c(=O)c3ncccc3n(Cc3ccc(Oc4ccccc4)cc3)c2=O)C1 (centres unmarked) | Rec1 | cell growth or viability, MTT | 72 h | 0.1 |
| Cc1ccc([N+](=O)[O-])cc1S(=O)(=O)N(C)/N=C/c1cnc2ccc(Br)cn12 | HOP-92 | cell growth or viability |  | 0.094 |
| CC(=O)OC[C@H]1O[C@@H](Oc2ccc(C#[C][Pt+])cc2)[C@H](OC(C)=O)[C@@H](OC(C)=O)[C@@H]1OC(C)=O.O=S(=O)([O-])C(F)(F)F.c1ccc(-c2cccc(-c3ccccn3)n2)nc1 | CCD 19Lu | cell growth or viability | 24 h | > 100 |
| COC1CC(=O)C2C(O)C=CC(O)C2C12Oc1cccc3cccc(c13)O2 (centres unmarked) | OVCAR-3 | cell growth or viability, resazurin | 72 h | 11.1 |
| CC(C)=CC1OC(C)(C)C2C=C3C(=O)C(Cl)=CC(O)C3C3C(O)C4OC4C(=O)C132 (centres unmarked) | KYSE-450 | cell growth or viability, MTS |  | 3.78 |
| CN(C)C(=O)c1cccc(N2Cc3cn(CC4CCCCC4)nc3C2)c1 | HEK293 expressing GluA1 and GluA2 | glutamate excitotoxic cell death, CellTox Green | together with: glutamate | 0.026 |
| CN1CCC(N[C@@H]2CCc3[nH]c4c(C(N)=O)ccc(-c5ccccc5Cl)c4c3C2)CC1 | RKO | cell growth or viability |  | 0.00014 |
| CCN(C)Cc1c(OC)cc(-c2cc(C(C)=O)n3ccccc23)cc1OC | MV4-11 | cell growth or viability, ATP luminescence |  | 1.77 |
| CO[C@@H](C[C@H]1C(C)=CC[C@@H]2[C@]3(C)C[C@H](O[C@@H]4O[C@@H](C)[C@H](O)[C@@H](O)[C@H]4O)[C@@H](O)C(C)(C)[C@H]3CC[C@]21C)[C@H](N)C(=O)O | THP-29 | cell viability, CCK-8 | 72 h | > 10 |
| N#Cc1cccc(N2Cc3cn(Cc4ccc(F)cc4)nc3C2)c1 | HEK293 expressing GluA1 and GluA2 | glutamate excitotoxic cell death, CellTox Green | together with: glutamate | 0.035 |
| CC(CCC(=O)OCc1cccc(CN(C(=O)OCc2ccc(B3OC(C)(C)C(C)(C)O3)cc2)[c-]2cccc2)c1)C1CCC2C3CCC4CC(O)CCC4(C)C3CC(O)C12C.[Fe+2].c1cc[cH-]c1 (centres unmarked) | BL2 | cell growth or viability, MTT | 48 h | 14 |
| CCOC(=O)/C=C1\S/C(=N\N=C\c2cccc3cc4ccccc4nc23)N(C)C1=O | SK-BR-3 | cell growth or viability, MTT | 48 h | > 50 |
| CC(C)c1ccc(N(C)c2ccc3c(c2)OCC[C@H]3CNc2cnccc2C(=O)O)cc1 | NCI-H2023 | cell growth or viability, ATP luminescence | 7 days | 0.00303 |

Some of these lines once more:
| Structure (SMILES) | cell line | assay | conditions | IC50 [µM] |
| --- | --- | --- | --- | --- |
| CNC(=O)c1cc(OC)c(-c2cc(C(C)=O)n3ccccc23)cc1OC | MV4-11 | cell growth or viability, ATP luminescence |  | 2.84 |
| NCCOc1cc(NC(=O)c2cc(OCc3cn(Cc4ccc(C(=O)O)cc4)nn3)cc(C(=O)Nc3cc(OCCN)c4ccccc4n3)n2)nc2ccccc12 | HT-1080 | cell growth or viability, ATP luminescence | 72 h | > 40 |
| CN(C)C(=O)c1cccc(N2Cc3cn(Cc4ccccc4F)nc3C2)c1 | HEK293 expressing GluA1 and GluA2 | glutamate excitotoxic cell death, CellTox Green | together with: glutamate | 0.039 |
| CC(=O)OC[C@H]1O[C@@H](Oc2ccc(C#[C][Pt+])cc2)[C@H](OC(C)=O)[C@@H](OC(C)=O)[C@@H]1OC(C)=O.O=S(=O)([O-])C(F)(F)F.c1ccc(-c2cccc(-c3ccccn3)n2)nc1 | CCD 19Lu | cell growth or viability | 24 h | > 100 |
